Results collected from several papers.
Each numbered part is a random draw from the data of one study; scales do not carry over between parts. Positions count from the first letter of the parent shown.

Set 1
Target: ABI1, truncated, D143A, DHFR fusion (Arabidopsis thaliana)
Technique: DHFR PCA, deep sequencing
Matrix: yeast
Notes: methotrexate growth selection, single substitutions
Together with: (+)-ABA 710 µM
Relative to: wild-type fitted maximum
Direction: higher = stronger binding
Quantity: relative binding score
Parent: PYL1, truncated, DHFR fusion (Arabidopsis thaliana); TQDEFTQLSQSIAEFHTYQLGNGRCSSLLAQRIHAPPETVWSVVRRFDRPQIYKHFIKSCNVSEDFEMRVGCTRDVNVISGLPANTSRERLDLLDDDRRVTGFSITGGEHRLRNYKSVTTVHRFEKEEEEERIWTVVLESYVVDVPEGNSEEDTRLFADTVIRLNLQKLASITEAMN; partner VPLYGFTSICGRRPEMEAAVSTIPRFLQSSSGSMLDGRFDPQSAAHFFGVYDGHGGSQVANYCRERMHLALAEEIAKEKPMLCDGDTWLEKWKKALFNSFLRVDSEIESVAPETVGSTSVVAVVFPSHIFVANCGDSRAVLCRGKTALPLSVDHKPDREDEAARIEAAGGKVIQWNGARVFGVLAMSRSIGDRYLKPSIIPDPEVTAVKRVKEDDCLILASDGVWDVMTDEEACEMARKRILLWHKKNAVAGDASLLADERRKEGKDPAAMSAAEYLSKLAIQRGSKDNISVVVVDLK
N165P: 7.14%
P83Y: 39.7%
A84T: 46.9%
I162S: 35.6%
R45N: 74.8%
G148C: 89.7%
G81I: 8.73%
H34V: 98.7%

Set 2
Target: CCNE1, cyclin fold, Cln2 fusion (human)
Technique: yeast growth competition, sequencing
Matrix: yeast
Notes: weak parent motif
Relative to: not given
Direction: higher = stronger binding
Quantity: normalised enrichment score
Parent: SLBP docking peptide (human); ARYKRKLLINDFG
R5A: 0.653
K4Q: 0.336
A1I: 0.551
I9H: 1.16
Y3E: 0.304
R2W: 1.32
R5N: 0.0677
K6I: 0.66
R5M: 0.568
F12C: 0.459

Set 3
Target: Phosphate system positive regulatory protein PHO4, full length, GST-tagged (PHO4, Saccharomyces cerevisiae, UniProt P07270, residues 1-312)
Technique: competition protein-binding microarray
Form: double-stranded DNA, one strand shown
Matrix: in vitro
Concentration: 2 µM
Notes: whole 60-bp probe, lowest competitor level
Together with: Cbf1 competitor, 0.05 µM
Direction: higher = stronger binding
Quantity: fluorescence intensity
Constant ends, left off below: … GTCTTGATTCGCTTGACGCTGCTG
Residues (chain): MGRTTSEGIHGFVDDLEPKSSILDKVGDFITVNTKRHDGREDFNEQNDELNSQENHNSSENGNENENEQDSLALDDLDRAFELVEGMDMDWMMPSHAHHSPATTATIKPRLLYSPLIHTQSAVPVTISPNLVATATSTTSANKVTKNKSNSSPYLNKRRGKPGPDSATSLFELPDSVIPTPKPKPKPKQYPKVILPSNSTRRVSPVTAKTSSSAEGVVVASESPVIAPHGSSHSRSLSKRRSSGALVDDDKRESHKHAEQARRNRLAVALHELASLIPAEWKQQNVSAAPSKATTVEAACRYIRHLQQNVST
AAAGCGGTAATTTTTCACGTGGCGTCAAATATCTAT: 14100 a.u.
ATCATACCACAGTACCCCGTGGAGTTAATGTTTAAC: 11700 a.u.
GTCTTGTCTCATTGAAGTGTGGGTGTCCCCACTTCA: 5280 a.u.
TGCAGTCTAAAAACACACGTGTAGGTTTTTTTCCGC: 15600 a.u.
TTCACAAAATTGCCACTCGTGGTGATATGCTATGGA: 9430 a.u.
TGATCATATCAGCTTGTTCATTGCTCTTATTTTTCT: 3300 a.u.
TTGATCCAAGAGCACTCTGTGACGAATTCTCCTCTA: 3940 a.u.
AAATTACTAAGTTGTCACTCAACTTACCCCGTATGA: 3570 a.u.
AGCAAAGGAGACTTAAACGTGAGAGAGACCTGGCCT: 7010 a.u.
AAATTACTAAGTTTCCACGTGTTTTACCCCGTATGA: 16200 a.u.
TTTCCAAGCCGCCGTCACGGCTGAATACCTGGCCAA: 2560 a.u.
AGTGGAACTAGTACCCACGTCAGCGGGCCTAGGCCC: 3570 a.u.
GGCTCAAAGAGATCTCACGTGGTCGGAGTATGAACG: 18800 a.u.
AAGAAGTACGACCGACACGTTAGTATGCCTTTGTTG: 6580 a.u.

Further values, each from its own experiment
PhoQ, residues 284 288 289 292 302 303 NLCILV  fold induction (PhoP, residues 12 14 15 18 19 LHSVW (Escherichia coli, UniProt P23836); Sort-seq, item: YFP reporter; E. coli; PhoQ-PhoP variant library, together with: 10 µM Mg2+; relative to: high Mg2+ state, higher = stronger signaling): 5.17

For quick reference, copied from above (set 1):
G81I: 8.73%
A84T: 46.9%
R45N: 74.8%
